Published values collected from several papers.
Each numbered part is a random draw from the data of one study; scales do not carry over between parts.

Set 1
Target: Histone acetyltransferase KAT6A, winged helix 1, GST fusion (KAT6A, Homo sapiens, UniProt Q92794, residues 1-85)
Technique: protein binding microarray
Form: double-stranded DNA, one strand shown
Sample: in vitro
Concentration: not given
Setting: 8-mer, flanks averaged, mean of 2 arrays, mostly near background
Baseline: not given
Reading: higher = stronger binding
Residues (chain): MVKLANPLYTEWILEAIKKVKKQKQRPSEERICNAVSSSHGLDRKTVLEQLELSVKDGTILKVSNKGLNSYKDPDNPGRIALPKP
Sequence	E-score
ATGAACTA	-0.136
AGGCACCA	-0.108
CTATATGC	-0.00929
GAAGCACA	-0.262
ATCGCGCC	0.385
CCATAGGG	-0.23
GCGCTGGA	0.319
CTGGCCGA	0.182
ACTTTTGA	-0.0131
CGGTCAGC	0.26

Set 2
Target: Phosphate system positive regulatory protein PHO4, full length, GST-tagged (PHO4, Saccharomyces cerevisiae, UniProt P07270, residues 1-312)
Technique: competition protein-binding microarray
Form: double-stranded DNA, one strand shown
Sample: in vitro
Concentration: 2 µM
Setting: whole 60-bp probe, lowest competitor level
With: Cbf1 competitor, 0.05 µM
Reading: higher = stronger binding
Construct (chain): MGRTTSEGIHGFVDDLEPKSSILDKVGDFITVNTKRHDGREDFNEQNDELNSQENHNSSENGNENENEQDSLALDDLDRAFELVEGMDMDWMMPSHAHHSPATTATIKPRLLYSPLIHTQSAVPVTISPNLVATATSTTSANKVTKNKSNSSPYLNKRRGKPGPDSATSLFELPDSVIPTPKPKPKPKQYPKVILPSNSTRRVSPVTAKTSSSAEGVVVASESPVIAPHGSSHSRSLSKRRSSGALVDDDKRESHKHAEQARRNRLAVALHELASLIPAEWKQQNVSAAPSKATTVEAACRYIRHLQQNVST
Sequence	fluorescence intensity [a.u.]
TGAGCGCCATTAAAGCGCGTGCTGTCGTACTGGGTGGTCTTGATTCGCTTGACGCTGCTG	11700
GTCTTGTCTCATTTTCACGTGTTCTTCCCCACTTCAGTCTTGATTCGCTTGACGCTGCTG	12900
ACCGGCAAAATACTACACGTGCCAGTACGGCACCAAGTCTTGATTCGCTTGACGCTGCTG	14600
CTAACGAAGGTTTTTCACGTGGTCTACAAGCCAAGTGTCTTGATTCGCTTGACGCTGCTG	12000
GAAATGGTAGTTACACGCGTGAAATCAGGGTCTTAAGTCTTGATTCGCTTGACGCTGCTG	6570
CTAACGAAGGTTTGAACAGTGGGTGACAAGCCAAGTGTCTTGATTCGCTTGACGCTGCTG	4080
GTCAATGCAGTCATCCTCGTGAAATCTGGAATGAATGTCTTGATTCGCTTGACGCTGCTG	6700
CATACCCAACCTTGGCTAGTGGGTGAAGATATTTGTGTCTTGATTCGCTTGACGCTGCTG	3740
GTCTTGTCTCATTTTCACGTGTAGTTCCCCACTTCAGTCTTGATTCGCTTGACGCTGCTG	11000
CATTGCGGCGGGCACCACATGAACTTCGTCAAGAATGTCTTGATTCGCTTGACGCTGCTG	5870
TACGACGAGACTTGGCATGATCAAAGTGCAAAAGAAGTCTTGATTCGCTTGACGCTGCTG	4290
AAAGCGGTAATTTGTCACTTAACTTCACATATCTATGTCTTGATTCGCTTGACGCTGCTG	3540
GACTTACATCTCTGGCACGTGGTGAAGTACGAGCCCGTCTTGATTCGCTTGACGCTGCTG	16600

Set 3
Target: RING finger protein unkempt homolog, zinc fingers 1-6, SBP tag (UNK, Homo sapiens, UniProt Q9C0B0, residues 30-357)
Chain of UniProt Q9C0B0 (30-357, looked up): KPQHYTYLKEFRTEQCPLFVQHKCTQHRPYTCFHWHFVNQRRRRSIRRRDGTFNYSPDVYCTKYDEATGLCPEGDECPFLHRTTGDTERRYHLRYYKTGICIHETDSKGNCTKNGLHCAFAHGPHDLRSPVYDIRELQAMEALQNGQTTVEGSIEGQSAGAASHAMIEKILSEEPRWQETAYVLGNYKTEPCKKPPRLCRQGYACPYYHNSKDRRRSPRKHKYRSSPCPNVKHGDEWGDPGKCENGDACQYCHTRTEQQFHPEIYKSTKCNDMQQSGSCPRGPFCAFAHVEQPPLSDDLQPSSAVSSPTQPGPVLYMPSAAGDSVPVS
Technique: RNA Bind-n-Seq
Form: RNA
Sample: in vitro
Concentration: 100 nM
Setting: RNA with constant flanks, vertebrate orthologous sites, ends assumed
Baseline: input RNA pool
Reading: higher = stronger binding
Sequence	bound/input enrichment
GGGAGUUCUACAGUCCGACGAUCGAUUUGGACCUAGGAGCCGAACCAGGGAGCUAGCAAAAGAAAAGCAGACGUGUAAAAAUAUAGCCAUGUGCAGCUGCCCAGCAGCAGUACACCAACUAGCAGCUGUGUUAAAGUAUUUAUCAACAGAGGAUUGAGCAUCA	0.579 ratio
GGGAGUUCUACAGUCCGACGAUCGGCAUGUCCUGUAGCUGUGUGUUCAAACACCUCACAGUACUCACUCUGUCCCAACAAUUCUAAUUGCCUAGAAAUAUCCUUCUCUUACCUGUUAUUUAUCAAUUUUUCCCAGUAUUUUUACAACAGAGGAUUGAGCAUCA	2.24 ratio
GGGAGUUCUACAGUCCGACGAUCGCCUCCAAAAGGCAGAUUCAGGGAGAGAUAGACUUCAGGGAAUAUAAAUUUAUUUAAUAAUAAUGAUCUGAAAUAAUAAAUUUGGUAUAAUUGGAUUGUGGGGGAGCAGUGAUGAUGAUUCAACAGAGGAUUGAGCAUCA	0.904 ratio
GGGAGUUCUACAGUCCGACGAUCGGGCAGCCUGUGGUGGAAGCCCAUGCCCUGGCCUUGUCUCCUCUCCCUUCCACCCACUCCUAGUUACCUUUUUAUUUUUAACCACCAUGUGAUUAAGGUCGGAGCAGCCUUCCCACGACUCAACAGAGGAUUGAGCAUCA	3.4 ratio
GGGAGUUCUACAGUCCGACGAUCAGAGCUCACAAACUGAAAGGAAAACUGUUAAAGAGUUUCUAAUAUUAACUAUUAGAAAGCUAGGAAAGAUUAGGACAAUUUUACAAAUGAGCAAUUAAAAAGAAAAUGAUCUGGGAACUACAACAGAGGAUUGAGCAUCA	0.383 ratio
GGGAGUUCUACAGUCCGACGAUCAGCAACCCAAGGUUUCAGGACUGGCUUUAUAAAUAUACCAAAUAGAUAUGGAACUAACAAUAGAAUUGGACAACCAAGACCUUAAUGUACUCUAGUUUCUUUUAAUUUAUUUUUAUGAAGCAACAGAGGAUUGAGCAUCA	0.864 ratio
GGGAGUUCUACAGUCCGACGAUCUUGGGGUGUAUCUGUGGGCGCUGCUGGCCACGUAGCGUCGUUUGAUUCAUGACCUUGACAUAAUAGAUAGGCUUGUGGUUUUUUAAUUUAAAGAUAUUAAGACUUUAAUUCACUAAAAUUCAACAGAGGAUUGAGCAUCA	0.531 ratio
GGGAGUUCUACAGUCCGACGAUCUUCAACACCACUGGGUGGAAGGAUGAGGAUGGAGCGGCCAUCAUAGCUAGAAAGGGUCCAUCUUUGUUCCCAUUUGCAUCAUCAUCCCCAGAUCAAGGUGGCAGCAGAUUUCUCCCUACCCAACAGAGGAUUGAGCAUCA	0.318 ratio
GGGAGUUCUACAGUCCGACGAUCACCGAGGGACACCCAGCGGGGCGAGGAGCCACCCAGGGCAGCGAAGGCGGGGCGGGAUCGCUGCCGCCUGCACCGGCCGGGCUGCGCUCGCUGCCCUGUGCCCCCCUCUGGUGCAAAACCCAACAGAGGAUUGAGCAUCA	1.23 ratio
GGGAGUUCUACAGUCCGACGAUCGUUGUGAUCCCUUUAAUAUGCACAGAAAACUGUCAAAGAAAAACUUGCGUGCAAUUGACCUGCAUGACGCAACUUUUCUAACUGCCAAGUUUGGAAGACAGUUUGUACCUGGUUGGAAGCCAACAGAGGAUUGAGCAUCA	0.41 ratio
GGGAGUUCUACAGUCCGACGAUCCAUUGUACCCUCCUGUAUAAUAAACAAUCUUAGACAUUUAUCAACUGUUGAUACAAAUGUUAGUCCCUAACCACUUUUUAUAUAUGUUUUAAAUUUUUGAAAUUCAAGUGUACCUGCCAUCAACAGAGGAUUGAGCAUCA	1.53 ratio

Other studies, line by line
Substance	target	test	system	conditions	scale	quantity	value
PhoQ, residues 284 288 289 292 302 303 SCEHLI	PhoP, residues 12 14 15 18 19 QYFSL (Escherichia coli, UniProt P23836)	Sort-seq, measured: YFP reporter	E. coli	PhoQ-PhoP variant library, with: 10 µM Mg2+	baseline: high Mg2+ state, higher = stronger signaling	fold induction	14.3

For quick reference, copied from above (set 3):
Sequence	bound/input enrichment
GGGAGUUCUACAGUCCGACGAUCGGCAUGUCCUGUAGCUGUGUGUUCAAACACCUCACAGUACUCACUCUGUCCCAACAAUUCUAAUUGCCUAGAAAUAUCCUUCUCUUACCUGUUAUUUAUCAAUUUUUCCCAGUAUUUUUACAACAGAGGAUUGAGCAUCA	2.24 ratio
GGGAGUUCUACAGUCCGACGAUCGCCUCCAAAAGGCAGAUUCAGGGAGAGAUAGACUUCAGGGAAUAUAAAUUUAUUUAAUAAUAAUGAUCUGAAAUAAUAAAUUUGGUAUAAUUGGAUUGUGGGGGAGCAGUGAUGAUGAUUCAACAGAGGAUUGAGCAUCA	0.904 ratio
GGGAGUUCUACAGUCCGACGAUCGGGCAGCCUGUGGUGGAAGCCCAUGCCCUGGCCUUGUCUCCUCUCCCUUCCACCCACUCCUAGUUACCUUUUUAUUUUUAACCACCAUGUGAUUAAGGUCGGAGCAGCCUUCCCACGACUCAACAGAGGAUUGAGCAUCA	3.4 ratio
